# Literature values as cited in several papers.
# Each numbered part shows a few of the values that one paper quotes. ± gives the spread as reported.
# Sequence of UniProt P08684 (whole entry, looked up): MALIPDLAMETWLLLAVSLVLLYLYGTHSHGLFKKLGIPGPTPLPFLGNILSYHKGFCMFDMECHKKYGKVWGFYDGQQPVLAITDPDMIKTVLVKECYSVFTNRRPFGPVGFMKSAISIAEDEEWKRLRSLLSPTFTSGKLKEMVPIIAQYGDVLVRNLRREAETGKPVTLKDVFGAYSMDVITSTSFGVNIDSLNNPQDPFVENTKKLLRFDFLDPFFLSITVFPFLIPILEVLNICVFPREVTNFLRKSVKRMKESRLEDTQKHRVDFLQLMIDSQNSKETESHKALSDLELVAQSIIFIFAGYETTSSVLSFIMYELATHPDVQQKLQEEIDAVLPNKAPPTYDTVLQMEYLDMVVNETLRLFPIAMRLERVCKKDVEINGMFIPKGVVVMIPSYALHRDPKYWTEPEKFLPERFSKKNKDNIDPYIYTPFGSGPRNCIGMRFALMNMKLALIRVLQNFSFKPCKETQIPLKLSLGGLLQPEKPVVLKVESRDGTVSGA
# Sequence of UniProt P46098 (whole entry, looked up): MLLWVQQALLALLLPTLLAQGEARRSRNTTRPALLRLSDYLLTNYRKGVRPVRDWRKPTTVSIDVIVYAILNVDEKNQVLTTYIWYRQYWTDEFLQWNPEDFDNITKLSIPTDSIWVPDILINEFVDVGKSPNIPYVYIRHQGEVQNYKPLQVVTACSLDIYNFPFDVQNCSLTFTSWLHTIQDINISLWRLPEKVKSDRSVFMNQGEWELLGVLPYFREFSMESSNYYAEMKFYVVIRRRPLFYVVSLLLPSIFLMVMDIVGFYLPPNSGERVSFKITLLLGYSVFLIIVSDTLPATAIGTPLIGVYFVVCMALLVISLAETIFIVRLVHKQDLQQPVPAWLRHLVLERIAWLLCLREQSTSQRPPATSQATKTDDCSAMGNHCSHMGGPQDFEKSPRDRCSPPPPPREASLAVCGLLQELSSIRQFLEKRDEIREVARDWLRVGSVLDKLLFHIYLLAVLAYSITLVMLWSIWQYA

# Study 1
# Target: HLA class I histocompatibility antigen, A alpha chain, allele A*26:03 (Homo sapiens, UniProt P04439)
# Read-out: peptide-MHC binding
# Molecule type: peptide
Molecule,IC50 [µM]
YQRALHTSI,> 20
RRNRKALWL,> 20
RKWGLDFCY,> 20
DPKKTGGPI,> 20
AEILSGRVI,> 20
ETFRLLRSF,0.298
RTMPLSRFT,> 20
RQMKSGGRF,> 20
TMLYNKMEF,> 20
YYKDDISYF,> 20
HEVHAVWPG,> 20
ALYLLDGLR,1.01
SSDDIPPRW,> 20
GFPSLESSF,> 20
NVHRSQFAQ,> 20
FLMRNAIQY,> 20
YHLGGIEGL,> 20
RVFDKADGK,> 20
RYSNFAWYF,> 20
DIKDTKEAL,> 20
YGIGVGSGY,0.379
AVYLLDGLR,0.324
EYYFRNEVF,> 20
NRWKSWFSY,> 20
LFNTIATLY,> 20

# Other studies, line by line
Compound,tested on,test,test system,conditions,scale,endpoint,value
CNC(=C[N+](=O)[O-])NCCSCc1ccc(CN(C)C)o1,,,"human, plasma","dose not given, range of reported values",,AUC,5660 to 122000 nM·h
CC1(C)C(C(=O)c2cn(CCN3CCOCC3)c3ccccc23)C1(C)C,cannabinoid receptor CB2,agonist,,,,EC50,0.0007 µM
O=C(O)C(F)(F)C(F)(F)C(F)(F)C(F)(F)C(F)(F)C(F)(F)C(F)(F)C(F)(F)C(F)(F)F,CYP2C19,inhibitor,,Tox21 screening,,IC50,inactive
CCN(CC)N=O,,"fingerprint mutation, item: T>A substitution","rat, liver",concentration not given,,mutation frequency,increased
c1c[nH]cn1,sperm whale metmyoglobin H64Q,,,,,apparent dissociation rate constant,0.9 s⁻¹
O=C(O)C(F)(F)C(F)(F)C(F)(F)C(F)(F)C(F)(F)C(F)(F)C(F)(F)F,,,"mice, male",,,half-life,22 days
CCCCCOc1ccc(-c2ccc(-c3ccc(C(=O)N[C@H]4C[C@@H](O)[C@@H](O)NC(=O)[C@@H]5[C@@H](O)[C@@H](C)CN5C(=O)[C@H]([C@@H](C)O)NC(=O)[C@H]([C@H](O)[C@@H](O)c5ccc(O)cc5)NC(=O)[C@@H]5C[C@@H](O)CN5C(=O)[C@H]([C@@H](C)O)NC4=O)cc3)cc2)cc1,,,healthy volunteers,"200 mg day 1, 100 mg days 2-8",,AUC(0-24),104 µg·h/mL
O=C(O)C(F)(F)C(F)(F)C(F)(F)C(F)(F)C(F)(F)C(F)(F)C(F)(F)C(F)(F)F,CYP2C19,inhibitor,,Tox21 screening,,IC50,55.4 ± 15.5 µM
Cc1ccnc2c1NC(=O)c1cccnc1N2C1CC1,HIV-1 reverse transcriptase V179D,,,enzyme,baseline: mutant over wild type,IC50 fold change,0.9 fold
COc1ccc(C[C@@H](C)[C@@H](C)Cc2ccc(OC)c(OC)c2)cc1OC,,,human,"intravenous, 1700 mg, initial dose",,AUC,31.3 µg·h/mL
CN[C@H](C)[C@H](O)c1ccccc1,human OCT1,competitive inhibitor,MDCK-hOCT1 cell membranes,added: [3H]MPP+,,Ki,1.12 µM
c1ccc2c(c1)OCC(C1=NCCN1)O2 (centres unmarked),imidazoline I2 receptor,binding,brain,historical reference data,,Hill coefficient,1
Clc1ccc(C2c3ccccc3C3=NCCN32)cc1 (racemic),serotonin transporter,,,,,Ki,0.013 µM
CN1[C@@H]2CC[C@H]1C[C@@H](OC(=O)c1cc(Cl)cc(Cl)c1)C2,"5-hydroxytryptamine receptor 3A (HTR3A, Homo sapiens, UniProt P46098)",,,historical reference value,,Hill coefficient,0.8
CNCCN1C(=O)[C@H](OC(C)=O)[C@H](c2ccc(OC)cc2)Sc2ccccc21,"Cytochrome P450 3A4 (CYP3A4, Homo sapiens, UniProt P08684)","mechanism-based inhibition, inactivator",,,,KI,1.74 µM
CN1COCN(Cc2cnc(Cl)s2)/C1=N\[N+](=O)[O-],,,soil,"0.37 nominal, 0 days, Folsomia candida soil test",,recovery,84%
CC(C)NC[C@@H](O)c1ccc(O)c(O)c1,human OCT1,competitive inhibitor,MDCK-hOCT1 cell membranes,added: [3H]MPP+,,Ki,180 µM
CC(C)(O/N=C(\C(=O)N[C@@H]1C(=O)N2C(C(=O)[O-])=C(C[N+]3(CCNC(=O)c4ccc(O)c(O)c4Cl)CCCC3)CS[C@H]12)c1csc(N)n1)C(=O)O,OXA-23,"hydrolysis by enzyme, substrate",,,,Km,4.8 mM
Cc1cc(-c2nccc3c2ccn3CC(=O)Nc2ccc(-c3cnccn3)cn2)ccn1,,,dog,"concentration not given, 1 month",,NOEL,30 mg/kg/day
C=C1C[C@@H]2[C@H](CC[C@]3(C)C(=O)CC[C@@H]23)[C@@]2(C)C=CC(=O)C=C12,,,healthy high-risk postmenopausal women,"dose not given, long-term use",,reduction in invasive breast cancer incidence,65%
COC(=O)[C@@H]1C[C@H](OC(C)=O)C(=O)[C@H]2[C@@]1(C)CC[C@H]1C(=O)O[C@H](c3ccoc3)C[C@]21C,kappa opioid receptor V108A,,,,,Ki,0.269 ± 0.025 µM
CCC(CC)COC(=O)[C@H](C)N[P@](=O)(OC[C@H]1O[C@@](C#N)(c2ccc3c(N)ncnn23)[C@H](O)[C@@H]1O)Oc1ccccc1,cathepsin A,,,intravenous,,fraction metabolized,~10%
CC(C)c1ccc(O)c(=O)c(O)c1,HepDES19,MTS,,,,CC50,25 ± 20 µM
CCCCCCC(C)(C)c1cc(OC)c(C2C=C(CO)C3CC2C3(C)C)c(OC)c1 (centres unmarked),"cannabinoid CB1 receptor, rat",binding,,,,Ki,> 10 µM
CC(NCCc1ccc(O)cc1)C(O)c1ccc(O)cc1 (centres unmarked),,,"human, plasma","dose not given, range of reported values",,AUC,30 to 322 nM·h
